Results gathered from unrelated publications.
Every numbered part comes from another study and shows a few of its results, in no order. Positions count from the first letter of the parent shown.

Series 1
Target: Ras GTPase-activating protein-binding protein 1, full length (G3BP1, Homo sapiens, UniProt Q13283)
UniProt Q13283, sequence (whole entry, looked up): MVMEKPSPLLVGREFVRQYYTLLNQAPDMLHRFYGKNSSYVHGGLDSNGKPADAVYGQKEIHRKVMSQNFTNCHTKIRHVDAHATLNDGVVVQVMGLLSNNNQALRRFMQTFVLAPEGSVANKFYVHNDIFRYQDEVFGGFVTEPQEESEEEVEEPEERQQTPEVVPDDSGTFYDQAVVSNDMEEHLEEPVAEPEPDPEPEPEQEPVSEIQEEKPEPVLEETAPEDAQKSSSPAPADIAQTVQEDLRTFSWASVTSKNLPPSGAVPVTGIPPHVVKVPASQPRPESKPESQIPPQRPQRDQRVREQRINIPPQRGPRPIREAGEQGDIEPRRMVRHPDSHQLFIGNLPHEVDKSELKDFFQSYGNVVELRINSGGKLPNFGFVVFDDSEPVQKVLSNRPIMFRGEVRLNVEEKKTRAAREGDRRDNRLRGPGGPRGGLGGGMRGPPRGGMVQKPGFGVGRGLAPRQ
Method: RNA Bind-n-Seq
Molecule type: RNA
Sample: in vitro
Concentration: 200 nM
Setting: whole 134-nt RNA, ends assumed
With: 150 mM LiCl
Baseline: input library
Reading: higher = stronger binding
All molecules: 7-deaza-guanosine replaces G
Oligonucleotide	log2 enrichment
GGGAGUUCUACAGUCCGACGAUCGUCCUGUGCUACACAUCGUAUGUACCGAAUCAAAUUUUUUUAAAUUUAAAUUUUUAAAAAAGUAUUAUGUUACGCCGUUCGGAUCUGCACUGGAAUUCUCGGGUGUCAAGG	-2.86
GGGAGUUCUACAGUCCGACGAUCUCCUCAAGUCCUGUGCUACACAUCGUAUGUACCGAAUCGGGAGGGAGGAGGGAAAGUAUUAUGUUACGCCGUUCGGAUCUGCACUUCCAGUGGAAUUCUCGGGUGUCAAGG	0.301
GGGAGUUCUACAGUCCGACGAUCUAACUUUAGAGGAGGAUCUGAUGGAUAUGGCAGUGGACGUGGAUUUGGGGAUGGCUAUAAUGGGUAUGGAGGAGGACCUGGAGUUGGCAAUGGAAUUCUCGGGUGUCAAGG	0.214
GGGAGUUCUACAGUCCGACGAUCUCCUGUGCUACACAUCGUAUGUACCGAAUCGGGGUGGGGAAAAAGGGGAAAAAAAGGGGAAAGUAUUAUGUUACGCCGUUCGGAUCUGCAUGGAAUUCUCGGGUGUCAAGG	-0.914

Series 2
Target: CCNB2, cyclin fold, Cln2 fusion (human)
Method: yeast growth competition, sequencing
Sample: yeast
Setting: weak parent motif
Baseline: not given
Reading: higher = stronger binding
Starting sequence: CDC6 docking peptide (human); TLKGRRLVFDNQL
Change	normalised enrichment score
TLKGRREVFDNQL [L7E]	0.298
TLKGTRLVFDNQL [R5T]	0.547
TLHGRRLVFDNQL [K3H]	-0.616
TLKGRRLVFKNQL [D10K]	0.844
TLKGRRLVFMNQL [D10M]	0.681

Series 3
Target: Interferon regulatory factor 5, full length, phosphomimetic (IRF5, Homo sapiens, UniProt Q13568-2, residues 1-514, K96S/S451D/S453D/S456D/S462D)
Method: protein-binding microarray
Molecule type: double-stranded DNA, one strand shown
Sample: in vitro
Concentration: 250 nM
Setting: 60-bp whole probe
With: salmon DNA 0.4 mg/ml
Baseline: random background probes
Reading: higher = stronger binding
Constant ends, left off below: GCCTAGCAC … GTCTTGATTCGCTTGACGCTGCTG
Oligonucleotide	log fluorescence [z-score]
GACGATATCGGGTATCGTGACGTGCTA	1.98
TCACCTCTGCTGCTGGCACTGTGCTAG	-0.305
TTAGAACTGAGTATCGATTTGTGCTAG	5.83
TTAGGTATCGGGTTCCGGTTAGTGCTA	3.89
TTAGGTTTCGGGACAGGGTTAGTGCTA	6.79
GGGACTTTGAATTAGAAAGAGTGCTAG	-0.116

Other studies, line by line
Substance	target	test	system	setting	how to read	measurement	value
PhoQ, residues 284 288 289 292 302 303 SCCLKL	PhoP, residues 12 14 15 18 19 SPWRL (Escherichia coli, UniProt P23836)	Sort-seq, refers to: YFP reporter	E. coli	PhoQ-PhoP variant library, with: 10 µM Mg2+	baseline: high Mg2+ state, higher = stronger signaling	fold induction	7.71

Repeated from above (series 2):
Change	normalised enrichment score
TLKGRRLVFMNQL [D10M]	0.681
TLKGRRLVFKNQL [D10K]	0.844
TLKGRREVFDNQL [L7E]	0.298
